Measured values from different studies.
Compare with care: the assays were run in different laboratories. Values joined by “and” are separate records of one study, mostly repeats; a detail may differ. Numbers after ± are the reported error.
CXCR4: C-X-C chemokine receptor type 4 (CXCR4, Homo sapiens, UniProt P61073)
FFAR4: Free fatty acid receptor 4 (FFAR4, Homo sapiens, UniProt Q5NUL3)
TRPM8: Transient receptor potential cation channel subfamily M member 8 (TRPM8, Homo sapiens, UniProt Q7Z2W7)
NADH dehydrogenase [ubiquinone] iron-sulfur protein 7, mitochondrial/NADH dehydrogenase [ubiquinone] iron-sulfur protein 2, mitochondrial/MT-ND1: NADH dehydrogenase [ubiquinone] iron-sulfur protein 7, mitochondrial/NADH dehydrogenase [ubiquinone] iron-sulfur protein 2, mitochondrial/MT-ND1 (Homo sapiens, UniProt O75251+O75306+P03886)

SMILES = c1coc(-c2n[nH]cc2-c2ccnc3ccccc23)c1; target = Serine/threonine-protein kinase PKH2 (Candida albicans, UniProt Q5A3P6); assay = kinase binding, MIB/MS competition; system = Candida albicans lysate; conditions = 10 µM; scale = relative to: DMSO, negative = stronger binding; quantity = log2 fold change; value = -0.13
SMILES = COc1ccc(C(=O)NCc2ccc(CNS(=O)(=O)c3ccc(C)cc3)cc2)cc1; target = CXCR4; assay = binding, inhibitor, competitive binding; system = MDA-MB-231; conditions = together with: biotinylated TN14003; quantity = EC; value = 100 nM
SMILES = O=c1[nH]c(NCCCc2ccccc2)c(Br)c(=O)[nH]1; target = FFAR4; assay = agonist, β-arrestin recruitment; system = CHO cells; conditions = 10 µM; quantity = activation; value = 0%
SMILES = C#CCNCc1ccc(C(=O)c2ccc([N+](=O)[O-])cc2)cc1; target = Sigma intracellular receptor 2 (TMEM97, Homo sapiens, UniProt Q5BJF2); assay = radioligand binding; system = RT-4 cell membranes; scale = relative to: sigma1 Ki over sigma2 Ki; quantity = Ki ratio; value = < 0.01
SMILES = O=C(O)C1=CC(=C(c2ccc(O)c(C(=O)O)c2)c2ccc(O)c(C(=O)O)c2)C=CC1=O; target = P2X purinoceptor 3 (P2RX3, Homo sapiens, UniProt P56373); assay = patch clamp; system = HEK293; conditions = 400 nM, unit not given; scale = relative to: baseline; quantity = remaining current; value = 0.528 ± 0.057
SMILES = O=[N+]([O-])c1cc(C(F)(F)F)ccc1NCc1ccsc1; target = Endothelial PAS domain-containing protein 1, PAS-B domain (EPAS1, Homo sapiens, UniProt Q99814, N288A); assay = binding, ITC, reverse mode; quantity = ΔH; value = -7.31 ± 0.11 kcal/mol
SMILES = Nc1nc2c(ncn2[C@@H]2O[C@H](COP(=O)(O)O)[C@@H](O)[C@H]2O)c(=O)[nH]1; target = GUK1 (Homo sapiens, UniProt Q16774, Y81A); assay = enzyme activity, NADH-coupled; conditions = 7.812 µM; quantity = reaction rate; value = 1.05 s⁻¹ and 1.04 s⁻¹ and 0.692 s⁻¹
SMILES = C[C@]1(O)C[C@@H](c2nc(-c3ccc4ccc(-c5ccccc5)nc4c3)c3c(N)nccn32)C1; target = Ferrochelatase, mitochondrial (FECH, Homo sapiens, UniProt P22830); assay = inhibitor, competition gel profiling; conditions = concentration not given; quantity = binding inhibition; value = inhibited
SMILES = O=c1nc(SCc2cc(F)cc(C(F)(F)F)c2)nc(SCc2ccc3nc(OCCN4CCOCC4)ccc3c2)[nH]1; target = DNA topoisomerase 2-alpha (TOP2A, Homo sapiens, UniProt P11388); assay = DNA cleavage; conditions = 125 µM; quantity = mean linear DNA; value = 0%
SMILES = CC[C@@H]1[C@H](F)C(=O)N[C@@H]1COc1nccc2cc(C(N)=O)c(OC)cc12; target = Microtubule-associated serine/threonine-protein kinase 3 (MAST3, Homo sapiens, UniProt O60307); assay = ATP-site probe binding, ActivX profiling; system = THP-1 cell lysate; conditions = 0.2 mM, Lys2 site; quantity = inhibition; value = 2.6%
SMILES = COc1cccc(-n2nc3c4cc(Cl)ccc4[nH]cc-3c2=O)c1; target = Gamma-aminobutyric acid receptor subunit alpha-4/beta-3, with delta subunit (Rattus norvegicus, UniProt P28471+P63079); assay = modulator, two-electrode voltage clamp; system = α4β3δ receptor; conditions = 100 nM, together with: GABA EC3-10; scale = relative to: GABA alone; quantity = GABA current; value = 102 ± 1.7%
SMILES = C=C1CN(S(=O)(=O)c2ccc(C)cc2)CCCN(Cc2ccccc2)CCCN(S(=O)(=O)c2ccc(C)cc2)C1; target = Protein transport protein Sec61 subunit alpha isoform 1 (Homo sapiens, UniProt P61619); assay = Sec61-dependent translocation, inhibitor, item: CD4 signal peptide-FLuc reporter; system = HEK293; conditions = 0.013 mM, 6 h; quantity = FLuc/RLuc ratio; value = 0.994
SMILES = [Cl-].[K+]; target = GUK1 (Homo sapiens, UniProt Q16774); assay = enzyme activity, NADH-coupled; conditions = 7.5 mM; quantity = reaction velocity; value = 0.0595 µM/s and 0.0569 µM/s and 0.0745 µM/s
SMILES = O=C(O)CCc1c[nH]c2ccccc12; target = Germin-like protein subfamily 3 member 1 (GLP1, Arabidopsis thaliana, UniProt P94040); assay = microscale thermophoresis; system = Arabidopsis protoplast extract; conditions = concentration not given; quantity = binding; value = no binding
SMILES = C=CC(=O)N1CCC(COCC(=O)N2CCN(c3nc(-c4cnc(N)nc4C(F)F)nc(N4CCOC[C@@H]4C)n3)CC2)CC1; target = Receptor-type tyrosine-protein kinase FLT3 (FLT3, Homo sapiens, UniProt P36888, D835H); assay = KINOMEscan; conditions = 1 µM; quantity = remaining binding; value = 74%
SMILES = O=Nc1c(-c2c(O)[nH]c3cc(Br)ccc23)[nH]c2ccccc12; target = TRPM8; assay = antagonist; system = HEK293; conditions = 5 µM; scale = relative to: control; quantity = remaining activity; value = 99.1 ± 3.19%
SMILES = Cc1cc2c(c(=O)[nH]1)C(=O)O/C2=C\c1ccc(F)cc1OC(C)C; target = Dual specificity calcium/calmodulin-dependent 3',5'-cyclic nucleotide phosphodiesterase 1C, isoform PDE1C2 (PDE1C, Homo sapiens, UniProt Q14123); assay = enzyme activity, inhibitor; conditions = together with: 3H-cGMP substrate; quantity = ligand efficiency; value = 0.35
SMILES = Cc1[nH]c(N)nc1/C=C/C(=O)c1cc(F)cc(F)c1.Cl; target = Voltage-gated hydrogen channel 1, monomeric (HVCN1, Homo sapiens, UniProt Q96D96); assay = proton current, inhibitor, inside-out patch clamp; quantity = Hill coefficient; value = 1.41 ± 0.06
SMILES = O=c1cc(NCCc2c[nH]c3ccccc23)[nH]c(=O)[nH]1; target = FFAR4; assay = antagonist, β-arrestin recruitment; system = CHO cells; conditions = 10 µM, together with: 4 µM TUG-891; quantity = inhibition; value = 14 ± 6%
SMILES = CN([C@@H](Cc1ccc(OS(=O)(=O)c2cccc3cnccc23)cc1)C(=O)N1CCN(c2ccccc2)CC1)S(=O)(=O)c1cccc2cnccc12; target = TRPM8; assay = antagonist; system = HEK293; conditions = 5 µM; scale = relative to: control; quantity = remaining activity; value = 98.1 ± 3.02%
SMILES = NC(=O)NOCCCCCCCCCCCCCCCC[P+](c1ccccc1)(c1ccccc1)c1ccccc1.O=C([O-])C(F)(F)F; target = NADH dehydrogenase [ubiquinone] iron-sulfur protein 7, mitochondrial/NADH dehydrogenase [ubiquinone] iron-sulfur protein 2, mitochondrial/MT-ND1; assay = complex I-dependent respiration, Seahorse XF96; system = HCT-116; conditions = 0.5 µM, 24 h; scale = relative to: control; quantity = oxygen consumption rate; value = 64.3 ± 7.02%
SMILES = O=C(COc1cc(Cl)ccc1Cl)Nc1cc(C2CCC2)nn1C1CCC(F)(F)CC1; target = Kir3.1/Kir3.2 (Homo sapiens, UniProt P48051+P48549); assay = thallium flux, activator; system = HEK293; scale = relative to: standard compound; quantity = Emax; value = < 10%
SMILES = [O-][S+]1CCCCS1 (centres unmarked); target = Superoxide dismutase [Cu-Zn] (SOD1, Homo sapiens, UniProt P00441, G94A); assay = two-compartment model; system = SOD1 G93A transgenic mice, whole blood; conditions = iv, 10 mg/kg; quantity = beta rate constant; value = 0.008 h⁻¹
SMILES = NC(=O)NO; target = NADH dehydrogenase [ubiquinone] iron-sulfur protein 7, mitochondrial/NADH dehydrogenase [ubiquinone] iron-sulfur protein 2, mitochondrial/MT-ND1; assay = complex I-dependent respiration, Seahorse XF96; system = HCT-116; conditions = 150 µM, 24 h; scale = relative to: control; quantity = oxygen consumption rate; value = 86.1 ± 3.5%
SMILES = Cc1ccc(S(=O)(=O)NCc2ccc(CNC(=O)c3ccncc3)cc2)cc1; target = CXCR4; assay = binding, inhibitor, competitive binding; system = MDA-MB-231; conditions = together with: biotinylated TN14003; quantity = EC; value = 10 nM
SMILES = Cc1cc(N)c2c(C)nn(-c3ccccc3)c2n1; target = 3-oxoacyl-[acyl-carrier-protein] reductase FabG (fabG, Pseudomonas aeruginosa, UniProt O54438); assay = enzyme activity, inhibitor, NADPH fluorescence; conditions = reverse reaction, together with: 3-OH-decanoyl-NAC, NADP; quantity = Hill slope; value = 1.6
SMILES = COc1cc(O)c(CC=C(C)C)c(O)c1C(=O)/C=C/c1ccc(O)cc1; target = Thyroxine 5-deiodinase (DIO3, Homo sapiens, UniProt P55073); assay = biochemical; quantity = Hill slope; value = -0.87 and -0.84 and -0.91
SMILES = CC[C@@H](C)[C@@H](NC(=O)[C@@H](Cc1ccc(O)cc1)NC(=O)[C@H]1CCCN1C(=O)[C@@H](CCCNC(=N)N)NC(=O)[C@H](N)Cc1c[nH]cn1)C(=O)N[C@H](C)C(=O)N[C@H](Cc1c[nH]cn1)C(=O)N[C@H](CCCNC(=N)N)C(=O)N[C@@H](C(=O)N[C@H](Cc1ccc(O)cc1)C(=O)N[C@H](CO)C(=O)N[C@H](Cc1ccccc1)C(N)=O)C(C)C; target = Transferrin receptor protein 1 (Tfrc, Mus musculus, UniProt Q62351); assay = flow cytometry; system = RAW264.7; conditions = 6 h, pH 7.4, unit not given; scale = relative to: 0 h; quantity = surface TFRC expression; value = 0.955
SMILES = O=c1[nH]c(NCCc2ccc(Br)cc2)c(Br)c(=O)[nH]1; target = FFAR4; assay = agonist, β-arrestin recruitment; system = CHO cells; conditions = 10 µM; scale = relative to: 30 µM TUG-891; quantity = agonist effect; value = 0%
SMILES = OCC(O)CCON=C1C(c2c(O)[nH]c3ccccc23)=Nc2ccccc21 (centres unmarked); target = TRPM8; assay = antagonist; system = HEK293; conditions = 5 µM; scale = relative to: control; quantity = remaining activity; value = 100 ± 16.4%
SMILES = O=c1cc(NCCCc2ccccc2)[nH]c(=O)[nH]1; target = FFAR4; assay = agonist, β-arrestin recruitment; system = CHO cells; conditions = 10 µM; scale = relative to: 30 µM TUG-891; quantity = agonist effect; value = 1%
SMILES = C[C@@H](O)[C@@H](CO)NC(=O)[C@@H](CCCNC(=N)N)NC(=O)[C@@H]1CCCN1C(=O)[C@@H]1CSSC[C@H](NC(=O)[C@H](Cc2ccccc2)NC(=O)CN2CCN(CC(=O)O)CCN(CC(=O)O)CCN(CC(=O)O)CC2)C(=O)N[C@@H](Cc2ccc(O)cc2)C(=O)N[C@@H](Cc2ccccc2)C(=O)N[C@@H](CCC(N)=O)C(=O)N[C@@H](CC(N)=O)C(=O)N1 [gallium-68 labelled]; target = Vasopressin V1b receptor (AVPR1B, Homo sapiens, UniProt P47901); assay = radioreceptor binding; conditions = concentration not given, V1b receptor 31.25 nM, together with: tracer 0.3 µM; quantity = binding; value = 21.8%

A few entries again:
SMILES = Cc1cc2c(c(=O)[nH]1)C(=O)O/C2=C\c1ccc(F)cc1OC(C)C; target = Dual specificity calcium/calmodulin-dependent 3',5'-cyclic nucleotide phosphodiesterase 1C, isoform PDE1C2 (PDE1C, Homo sapiens, UniProt Q14123); assay = enzyme activity, inhibitor; conditions = together with: 3H-cGMP substrate; quantity = ligand efficiency; value = 0.35
SMILES = O=C(O)CCc1c[nH]c2ccccc12; target = Germin-like protein subfamily 3 member 1 (GLP1, Arabidopsis thaliana, UniProt P94040); assay = microscale thermophoresis; system = Arabidopsis protoplast extract; conditions = concentration not given; quantity = binding; value = no binding
SMILES = NC(=O)NOCCCCCCCCCCCCCCCC[P+](c1ccccc1)(c1ccccc1)c1ccccc1.O=C([O-])C(F)(F)F; target = NADH dehydrogenase [ubiquinone] iron-sulfur protein 7, mitochondrial/NADH dehydrogenase [ubiquinone] iron-sulfur protein 2, mitochondrial/MT-ND1; assay = complex I-dependent respiration, Seahorse XF96; system = HCT-116; conditions = 0.5 µM, 24 h; scale = relative to: control; quantity = oxygen consumption rate; value = 64.3 ± 7.02%
SMILES = NC(=O)NO; target = NADH dehydrogenase [ubiquinone] iron-sulfur protein 7, mitochondrial/NADH dehydrogenase [ubiquinone] iron-sulfur protein 2, mitochondrial/MT-ND1; assay = complex I-dependent respiration, Seahorse XF96; system = HCT-116; conditions = 150 µM, 24 h; scale = relative to: control; quantity = oxygen consumption rate; value = 86.1 ± 3.5%
